Assay results gathered from unrelated publications.
Each numbered part is a random draw from the data of one study; scales do not carry over between parts.
UniProt Q9NQU5, sequence (whole entry, looked up): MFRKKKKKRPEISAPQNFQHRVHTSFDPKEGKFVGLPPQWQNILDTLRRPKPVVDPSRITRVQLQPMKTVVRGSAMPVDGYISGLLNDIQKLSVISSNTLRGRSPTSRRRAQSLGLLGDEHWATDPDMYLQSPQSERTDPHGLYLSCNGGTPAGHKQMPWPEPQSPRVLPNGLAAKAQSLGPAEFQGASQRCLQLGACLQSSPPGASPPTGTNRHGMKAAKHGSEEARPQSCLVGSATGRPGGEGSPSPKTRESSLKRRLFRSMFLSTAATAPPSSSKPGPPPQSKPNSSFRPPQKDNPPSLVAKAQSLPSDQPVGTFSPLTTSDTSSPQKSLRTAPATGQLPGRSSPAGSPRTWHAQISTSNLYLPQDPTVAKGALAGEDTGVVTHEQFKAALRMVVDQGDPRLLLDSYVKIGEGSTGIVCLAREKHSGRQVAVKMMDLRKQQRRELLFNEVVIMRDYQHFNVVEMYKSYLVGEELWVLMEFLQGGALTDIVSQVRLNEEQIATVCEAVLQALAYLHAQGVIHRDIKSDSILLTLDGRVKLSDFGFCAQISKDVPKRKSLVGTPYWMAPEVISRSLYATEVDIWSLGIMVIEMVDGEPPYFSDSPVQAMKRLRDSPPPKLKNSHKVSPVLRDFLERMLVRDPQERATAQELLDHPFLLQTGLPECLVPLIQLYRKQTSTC
UniProt P07947, sequence (whole entry, looked up): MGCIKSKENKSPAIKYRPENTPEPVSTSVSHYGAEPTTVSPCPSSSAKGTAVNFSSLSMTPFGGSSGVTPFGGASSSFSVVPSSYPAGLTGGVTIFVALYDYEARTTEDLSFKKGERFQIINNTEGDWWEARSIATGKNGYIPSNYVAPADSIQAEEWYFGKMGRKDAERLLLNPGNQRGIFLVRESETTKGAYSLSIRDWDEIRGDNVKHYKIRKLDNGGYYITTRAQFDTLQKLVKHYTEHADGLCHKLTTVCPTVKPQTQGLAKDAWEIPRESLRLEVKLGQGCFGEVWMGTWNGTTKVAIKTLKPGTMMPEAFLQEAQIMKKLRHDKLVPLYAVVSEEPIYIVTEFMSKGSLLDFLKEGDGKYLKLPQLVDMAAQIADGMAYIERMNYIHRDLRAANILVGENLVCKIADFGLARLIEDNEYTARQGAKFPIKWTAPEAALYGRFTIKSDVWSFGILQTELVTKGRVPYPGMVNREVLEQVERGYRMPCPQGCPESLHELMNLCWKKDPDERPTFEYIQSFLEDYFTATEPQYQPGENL
UniProt Q14680, sequence (whole entry, looked up): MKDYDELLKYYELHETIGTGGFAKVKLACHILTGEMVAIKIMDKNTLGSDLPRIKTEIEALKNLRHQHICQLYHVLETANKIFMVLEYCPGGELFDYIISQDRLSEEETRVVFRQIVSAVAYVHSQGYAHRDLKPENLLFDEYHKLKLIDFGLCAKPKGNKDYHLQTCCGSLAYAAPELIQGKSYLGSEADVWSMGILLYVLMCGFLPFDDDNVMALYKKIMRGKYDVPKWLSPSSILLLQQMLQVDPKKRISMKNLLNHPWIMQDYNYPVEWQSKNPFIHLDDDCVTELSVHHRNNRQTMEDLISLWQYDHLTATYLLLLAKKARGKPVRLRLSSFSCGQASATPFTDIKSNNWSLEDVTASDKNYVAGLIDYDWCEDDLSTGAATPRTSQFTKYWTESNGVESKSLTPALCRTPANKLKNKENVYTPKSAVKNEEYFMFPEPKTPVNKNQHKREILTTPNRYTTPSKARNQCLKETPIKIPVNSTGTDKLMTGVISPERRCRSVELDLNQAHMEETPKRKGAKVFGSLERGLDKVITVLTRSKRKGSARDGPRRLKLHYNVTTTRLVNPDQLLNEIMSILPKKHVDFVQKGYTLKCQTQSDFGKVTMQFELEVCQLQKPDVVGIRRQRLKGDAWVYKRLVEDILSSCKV
UniProt P17948, sequence (whole entry, looked up): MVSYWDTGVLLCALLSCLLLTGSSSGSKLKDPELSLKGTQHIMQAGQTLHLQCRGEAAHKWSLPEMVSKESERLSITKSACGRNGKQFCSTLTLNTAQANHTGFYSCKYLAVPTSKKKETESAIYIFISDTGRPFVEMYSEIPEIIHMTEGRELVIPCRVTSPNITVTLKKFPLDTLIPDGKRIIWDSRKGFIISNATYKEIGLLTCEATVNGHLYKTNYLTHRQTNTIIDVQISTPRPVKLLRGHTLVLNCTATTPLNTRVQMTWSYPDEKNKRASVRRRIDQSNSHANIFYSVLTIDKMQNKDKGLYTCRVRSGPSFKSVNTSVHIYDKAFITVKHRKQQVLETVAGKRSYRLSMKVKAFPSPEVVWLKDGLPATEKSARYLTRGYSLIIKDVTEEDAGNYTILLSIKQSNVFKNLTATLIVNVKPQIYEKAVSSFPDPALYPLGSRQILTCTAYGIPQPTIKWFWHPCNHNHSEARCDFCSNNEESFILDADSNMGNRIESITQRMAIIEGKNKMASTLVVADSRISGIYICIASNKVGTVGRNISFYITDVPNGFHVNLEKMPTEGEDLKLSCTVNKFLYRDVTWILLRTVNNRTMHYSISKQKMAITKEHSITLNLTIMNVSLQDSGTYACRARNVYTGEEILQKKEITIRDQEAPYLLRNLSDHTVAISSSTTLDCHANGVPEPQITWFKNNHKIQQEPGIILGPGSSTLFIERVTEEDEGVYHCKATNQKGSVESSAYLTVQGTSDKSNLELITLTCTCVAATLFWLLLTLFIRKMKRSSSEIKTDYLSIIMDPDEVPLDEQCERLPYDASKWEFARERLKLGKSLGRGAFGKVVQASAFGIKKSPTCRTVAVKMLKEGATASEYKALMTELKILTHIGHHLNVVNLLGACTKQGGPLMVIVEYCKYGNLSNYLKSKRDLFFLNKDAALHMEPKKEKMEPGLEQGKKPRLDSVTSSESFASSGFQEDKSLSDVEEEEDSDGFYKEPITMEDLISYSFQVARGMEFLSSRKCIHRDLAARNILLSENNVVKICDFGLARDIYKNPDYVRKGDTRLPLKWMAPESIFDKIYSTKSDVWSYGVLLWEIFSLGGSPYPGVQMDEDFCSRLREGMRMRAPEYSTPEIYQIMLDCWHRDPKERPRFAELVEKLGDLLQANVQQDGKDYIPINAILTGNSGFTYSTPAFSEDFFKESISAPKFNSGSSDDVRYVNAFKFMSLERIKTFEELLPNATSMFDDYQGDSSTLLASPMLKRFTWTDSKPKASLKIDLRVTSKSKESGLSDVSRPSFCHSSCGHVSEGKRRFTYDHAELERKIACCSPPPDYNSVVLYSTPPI
UniProt Q9H0K1, sequence (whole entry, looked up): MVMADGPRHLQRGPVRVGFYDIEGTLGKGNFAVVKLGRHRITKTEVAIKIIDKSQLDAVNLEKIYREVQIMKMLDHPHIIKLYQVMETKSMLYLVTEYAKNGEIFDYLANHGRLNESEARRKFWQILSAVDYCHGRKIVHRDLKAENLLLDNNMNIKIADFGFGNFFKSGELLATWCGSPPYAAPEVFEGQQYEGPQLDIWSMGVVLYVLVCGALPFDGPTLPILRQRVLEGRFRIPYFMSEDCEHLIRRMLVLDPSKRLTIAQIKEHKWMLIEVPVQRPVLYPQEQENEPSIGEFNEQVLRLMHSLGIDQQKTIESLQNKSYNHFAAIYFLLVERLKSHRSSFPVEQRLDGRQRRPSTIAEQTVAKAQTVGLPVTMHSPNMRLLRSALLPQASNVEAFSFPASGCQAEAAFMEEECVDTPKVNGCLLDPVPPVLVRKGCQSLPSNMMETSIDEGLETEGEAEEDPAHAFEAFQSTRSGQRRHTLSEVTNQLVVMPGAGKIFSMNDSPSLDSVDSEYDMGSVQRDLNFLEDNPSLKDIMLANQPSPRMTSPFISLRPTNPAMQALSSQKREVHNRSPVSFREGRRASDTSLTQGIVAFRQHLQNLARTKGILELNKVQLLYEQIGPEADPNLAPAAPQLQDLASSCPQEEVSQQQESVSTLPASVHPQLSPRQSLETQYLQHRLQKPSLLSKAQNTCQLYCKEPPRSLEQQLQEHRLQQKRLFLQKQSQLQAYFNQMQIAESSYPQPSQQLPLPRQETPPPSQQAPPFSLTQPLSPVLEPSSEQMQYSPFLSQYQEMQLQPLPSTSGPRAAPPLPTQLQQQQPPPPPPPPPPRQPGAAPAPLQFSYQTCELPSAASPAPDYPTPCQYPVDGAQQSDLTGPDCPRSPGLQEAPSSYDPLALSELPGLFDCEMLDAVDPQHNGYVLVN
UniProt P49760, sequence (whole entry, looked up): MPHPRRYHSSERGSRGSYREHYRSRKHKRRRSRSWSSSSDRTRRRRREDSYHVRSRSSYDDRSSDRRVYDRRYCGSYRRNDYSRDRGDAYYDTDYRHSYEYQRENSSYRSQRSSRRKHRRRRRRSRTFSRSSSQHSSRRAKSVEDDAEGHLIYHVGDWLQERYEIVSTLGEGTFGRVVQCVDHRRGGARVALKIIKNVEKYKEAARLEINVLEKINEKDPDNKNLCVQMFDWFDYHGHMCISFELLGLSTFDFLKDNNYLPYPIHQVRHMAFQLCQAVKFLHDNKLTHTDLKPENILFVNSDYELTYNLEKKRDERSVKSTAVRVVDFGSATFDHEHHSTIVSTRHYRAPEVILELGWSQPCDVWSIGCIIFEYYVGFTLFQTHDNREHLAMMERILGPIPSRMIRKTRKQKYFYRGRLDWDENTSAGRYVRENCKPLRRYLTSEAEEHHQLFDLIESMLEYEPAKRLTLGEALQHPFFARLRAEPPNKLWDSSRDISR

Block 1 — method: RNA Bind-n-Seq; form: RNA; matrix: in vitro; concentration: not given; relative to: input RNA pool; reading: higher = stronger binding
Target: RING finger protein unkempt homolog, zinc fingers 1-6, GST-SBP tag (UNK, Homo sapiens, UniProt Q9C0B0, residues 30-357)
UniProt Q9C0B0, sequence (30-357, looked up): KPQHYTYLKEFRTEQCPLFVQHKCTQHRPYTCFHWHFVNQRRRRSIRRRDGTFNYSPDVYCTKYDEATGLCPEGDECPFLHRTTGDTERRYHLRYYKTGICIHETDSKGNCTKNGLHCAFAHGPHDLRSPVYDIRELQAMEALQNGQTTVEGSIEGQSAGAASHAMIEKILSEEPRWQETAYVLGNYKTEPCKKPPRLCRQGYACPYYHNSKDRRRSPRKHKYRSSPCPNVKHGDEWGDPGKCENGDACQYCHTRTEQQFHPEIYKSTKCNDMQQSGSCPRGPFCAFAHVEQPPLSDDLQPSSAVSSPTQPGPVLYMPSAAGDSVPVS
Setting: RNA with constant flanks, human and mouse sites, ends assumed
Shared flanks, not repeated: GGGAGUUCUACAGUCCGACGAUC … CAACAGAGGAUUGAGCAUCA
| Strand | bound/input enrichment [ratio] |
| --- | --- |
| UUAUAGGAUUCCAAACCCAUGAGACAUGUUUUACAGGAAAUGAAAGCAUGAAUACUCAGGUAGCUGGAAGUGAGUUAAACAUGACAGGGACAGGUGGCAUUAAAACUGAGUCUAAAAGCU | 0.353 |
| UGGCUUACCAACUAUUAAACAUUCUACCCUAUAGUAGCUUACAGCAGCUGAGUUUCAUGAUAUAGUCCUCACCGUCAUUAAAAUGUUCCUGUUCCCUUUUCACAACUUUUAGAUAAAAGG | 1.36 |
| GCAAAGUUUGUGAGUGGUGAGGAAAUUGUCUCUGCCUCAACAGACAGUCAGCUAAAACUGUGGAAUGUAGGGAAACCAUACUGCCUACGUUCCUUCAAGGGUCAUAUCAAUGAAAAAAAC | 0.175 |
| CUCUUUUUUUUCCACGGGGCUGUUUUUUUAAUUUGGCUGCAAUUGCAUGAAAUCCCAAUGGUGUAGACCAGUGGCGAUGGAUCUAGGAGUUUACCAACUGAGACAUUUUUCCAUUUCUUU | 0.934 |
| UCUGGUCACACUCGUGUGUAUGGUGUUUGCUUUGUGGACACUUCACUGGGCAAGUUUUUCAUCGGCCAGUUUUCGGAUGACCGCCACUGUUCCAGAUUUAGGACGCUAGUGGCUCACUAU | 0.216 |
| CUGAACAUUUUGAAACUGGCUCCUGGUGGGCAUGUGGGCCGUUUCUGCAUCUGGACGGAGAGUGCUUUCCGGAAGUUGGAUGAGCUGUAUGGCACUUGGCGGAAGGCUGCUUCCCUCAAG | 0.202 |
| AUAGGCUCCUGUAUAAAUGCCAUUGAUUCAGAGCCCAAAGAUGUCAUUGCUAAUUCAAAUGCUGUGUUAAUGGACCUGGACAGUGGUGAUGUUAAGAGAAGAGUACAUUUAUUUGAAACC | 1.27 |
| UUUUGCAUUGUUGGUGUUGACUGUUGACUCUGUAGUGUAGGAGCAAUGAGCAUGUAAUUGUAGCACAAGUAGAGCGGAGGAUAGAGCAAAUUAUGGCUGAUGGAAAAGAUUUAAAUAGUC | 35.8 |

Block 2 — effect on: enzyme activity; action: inhibitor; concentration: 0.5 µM; relative to: control
SMILES: CN(C)CCCn1cc(C2=C(c3c[nH]c4ccccc34)C(=O)NC2=O)c2ccccc21
| target | remaining activity [%] |
| --- | --- |
| FLT1 (Homo sapiens, UniProt P17948) | 78.1 |
| ACVRL1 (Homo sapiens, UniProt P37023) | 107 |
| SIK2 (Homo sapiens, UniProt Q9H0K1) | 94.7 |
| DYRK1A (Homo sapiens, UniProt Q13627) | 54.7 |
| RPS6KB2 (Homo sapiens, UniProt Q9UBS0) | 59 |
| ERBB2 (Homo sapiens, UniProt P04626) | 96.5 |
| PRKCZ (Homo sapiens, UniProt Q05513) | 57.2 |
| IGF1R (Homo sapiens, UniProt P08069) | 91.7 |
| SRPK1 (Homo sapiens, UniProt Q96SB4) | 87 |
| YES1 (Homo sapiens, UniProt P07947) | 84.6 |
| MELK (Homo sapiens, UniProt Q14680) | 42 |
| CAMK1 (Homo sapiens, UniProt Q14012) | 82.7 |
| CLK2 (Homo sapiens, UniProt P49760) | 28 |
| CLK1 (Homo sapiens, UniProt P49759) | 60.3 |
| PAK4 (Homo sapiens, UniProt O96013) | 93.6 |
| PAK6 (Homo sapiens, UniProt Q9NQU5) | 100 |

Block 3 — cell line: normal-adjacent organoid sample E; method: CellTiter-Glo; concentration: 0.1 µM; setting: replicate mean; relative to: DMSO
| Structure (SMILES) | viability [%] |
| --- | --- |
| Cc1c[nH]c2nccc(Oc3c(F)cc(Nc4cc(Cl)nc(N)n4)cc3F)c12 | 132 |
| Cc1cc(Nc2nccc(C)n2)cc(-c2cnc([C@@]3(O)CC[C@H](C(=O)O)C(C)(C)C3)s2)c1 | 104 |
| Cc1cc(C)c(-n2ccn3nc(-c4cccnc4)cc23)cc1NC(=O)c1cc(C#N)cc(S(F)(F)(F)(F)F)c1 | 106 |
| CN1C(=O)[C@@H](N2CCc3cn(Cc4ccccc4)nc3C2=O)COc2ccccc21 | 112 |
| CS(=O)(=O)NCC[C@H](NC(=O)c1cncc2c1cnn2-c1ccc(F)cc1)c1ccnc(S(C)(=O)=O)c1 | 153 |
| Cc1nc(Cc2cccc(C(F)(F)F)c2)sc1-c1ccc(C(N)=O)nc1 | 91.7 |
| Nc1c(C(=O)NCc2ccc(C(=O)NCCCC3CCCCC3)cc2)cnn1-c1ccccc1 | 122 |
| CN(C)C(=O)Cn1cc(-c2nc([C@@](C)(c3ccc(-c4cnc(N)nc4)cc3)C3CC3)no2)cn1 | 102 |

Other studies, line by line
| SMILES | test system | endpoint | result |
| --- | --- | --- | --- |
| CCOC(=O)[C@@H]1CSCC(=O)N[C@H](CC)C(=O)N(C)[C@@H](C)C(=O)N[C@@H](CC(C)C)C(=O)N2CCC[C@H]2C(=O)N(CC(C)C)CC(=O)N[C@H](CC(C)C)C(=O)N(C)[C@@H](C)C(=O)N[C@@H](CC(C)C)C(=O)N1C | hydrocarbon/water | logD | 0.933 |

For quick reference, copied from above (block 2):
| target | remaining activity [%] |
| --- | --- |
| CAMK1 (Homo sapiens, UniProt Q14012) | 82.7 |
| CLK2 (Homo sapiens, UniProt P49760) | 28 |
| CLK1 (Homo sapiens, UniProt P49759) | 60.3 |
| PAK4 (Homo sapiens, UniProt O96013) | 93.6 |
| PAK6 (Homo sapiens, UniProt Q9NQU5) | 100 |
